Experimental data pooled from the literature.
A part holds a random share of what one study measured. Positions count from the first letter of the parent shown.

Block 1
Target: Microphthalmia-associated transcription factor, full length (MITF, Homo sapiens, UniProt O75030-10, residues 1-413)
Technique: protein-binding microarray
Molecule type: hairpin DNA
Matrix: in vitro
Tested at: not given
Notes: whole hairpin DNA, median over replicate spots
Relative to: not given
Direction: higher = stronger binding
| Strand | median fluorescence |
| --- | --- |
| CACTTAGAACGTGATTTTGGTCCTCCAAAATCACGTTCTAAGTGACACTC | 8550 a.u. |
| GAGGCCTAGCACGTACTGCCTCCTGGCAGTACGTGCTAGGCCTCACACTC | 5680 a.u. |
| GAGGCCTAGCACGTCCTGCCTCCTGGCAGGACGTGCTAGGCCTCACACTC (5mC at 15) | 5620 a.u. |
| CACTTAGCACGTCGTTTTGGTCCTCCAAAACGACGTGCTAAGTGACACTC | 5260 a.u. |
| GAGGCCTAGCACGTGCGGCCTCCTGGCCGCACGTGCTAGGCCTCACACTC (5mC at 28) | 21700 a.u. |
| GAGGCCTAGCACGTGCAGCCTCCTGGCTGCACGTGCTAGGCCTCACACTC | 20500 a.u. |
| CACTTAGCACGTGATTTTGGTCCTCCAAAATCACGTGCTAAGTGACACTC (5mC at 10) | 17500 a.u. |
| GAGGCCTAGCACCGGCTGCCTCCTGGCAGCCGGTGCTAGGCCTCACACTC (5mC at 13) | 5840 a.u. |

Block 2
Target: Interferon regulatory factor 3, full length, phosphomimetic (IRF3, Homo sapiens, UniProt Q14653, residues 1-427, S386D/S396D/S398D/S402D/T404D/S405D)
Technique: protein-binding microarray
Molecule type: double-stranded DNA, one strand shown
Matrix: in vitro
Tested at: 2540 nM top
Notes: 60-bp whole probe
With: salmon DNA 0.4 mg/ml
Relative to: random background probes
Direction: higher = stronger binding
Shared flanks, not repeated: GCCTAGCAC … GTCTTGATTCGCTTGACGCTGCTG
Residues (chain): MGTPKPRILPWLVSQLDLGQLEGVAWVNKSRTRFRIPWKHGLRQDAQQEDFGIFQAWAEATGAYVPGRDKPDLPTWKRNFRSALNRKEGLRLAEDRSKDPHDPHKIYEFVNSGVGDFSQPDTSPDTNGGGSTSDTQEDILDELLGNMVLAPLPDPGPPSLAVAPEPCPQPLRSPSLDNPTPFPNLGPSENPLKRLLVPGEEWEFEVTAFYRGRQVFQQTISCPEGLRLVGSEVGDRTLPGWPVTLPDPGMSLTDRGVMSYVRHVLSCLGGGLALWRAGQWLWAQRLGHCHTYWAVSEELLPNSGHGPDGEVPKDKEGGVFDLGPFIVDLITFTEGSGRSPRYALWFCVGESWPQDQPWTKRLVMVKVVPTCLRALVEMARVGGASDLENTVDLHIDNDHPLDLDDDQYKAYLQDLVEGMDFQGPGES
| Strand | fitted relative affinity [z-score] |
| --- | --- |
| TTAGGTCTCGGTTTGGGTTAGTGCTAG | 0.964 |
| GTAGGCTTCTATGTAGTTGAGTGCTAG | -0.748 |
| TTAGGTCTGGGACTGGGTTAGTGCTAG | -1.08 |
| GGCGGTTTCGGGACTGGGGACGTGCTA | 4.81 |
| TTAGGTCTCGGTATCCGTTAGTGCTAG | 2.14 |
| GACGATATCAGACTGGAGAAGTGCTAG | 0.258 |
| TTAGATGTCAGTTTCGATTAGTGCTAG | 4 |
| TTAGGTATCGACATTGGGTTAGTGCTA | 0.354 |

Block 3
Target: HLA class I histocompatibility antigen, A alpha chain, allele A*80:01 (Homo sapiens, UniProt P04439)
Observed: peptide-MHC binding
Molecule type: peptide
Tested at: concentration not given
| Sequence | binding |
| --- | --- |
| MTRGLLGSY | inactive |
| FTARIIIFS | inactive |
| AQSDFMSWV | inactive |
| AESICSYWL | inactive |

Block 4
Target: CCNE1, cyclin fold, Cln2 fusion (human)
Technique: yeast growth competition, sequencing
Matrix: yeast
Notes: strong parent motif
Relative to: not given
Direction: higher = stronger binding
Starting sequence: viral docking peptide; YKVKRRLVFGADD; partner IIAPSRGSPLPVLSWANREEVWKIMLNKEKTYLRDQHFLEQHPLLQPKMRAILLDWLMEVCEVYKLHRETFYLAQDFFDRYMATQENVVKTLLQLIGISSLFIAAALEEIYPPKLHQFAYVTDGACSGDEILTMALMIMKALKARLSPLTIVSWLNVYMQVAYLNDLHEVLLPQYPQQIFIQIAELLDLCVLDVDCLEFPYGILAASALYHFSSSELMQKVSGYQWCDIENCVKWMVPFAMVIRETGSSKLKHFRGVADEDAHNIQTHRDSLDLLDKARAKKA
| Change | normalised enrichment score |
| --- | --- |
| F9N | 0.282 |
| R6H | 1.85 |
| K4G | 1.78 |
| V3R | 0.41 |
| R5L | 0.155 |
| R6T | 3.23 |
| D12N | 5.48 |
| G10C | 5.63 |
| L7N | 0.251 |
| K4E | 1.57 |
| K4P | 1.69 |
| R5Q | 0.624 |
| R5D | 0.163 |
| K4R | 6.04 |
| V8E | 6.63 |
| K2W | 4.27 |
| G10L | 5.06 |
